Experimental data of several laboratories.
Lines come from different studies, so protocols differ. Numbers after ± are the reported error.

SMILES | assay | test system | conditions | scale | measurement | value
Cc1ccc(C)c(OCCCC(C)(C)C(=O)O)c1 | – | human, plasma | oral, dose not given, day 17 predose, geometric mean | – | trough plasma concentration | 1550 ng/mL
CC(C)(C(=O)N1CCOc2c(C#N)cncc2C1)C(F)F | – | human, both sexes, plasma | oral, 20 mg twice daily, multiple ascending dose | reference: day 14 over day 1 | accumulation ratio AUC(0-12h) | 1.63
Oc1ccc2c3c(cnc2c1)-c1ccc(C(F)(F)F)cc1O[C@@H]3c1ccc(OCCN2CC(CF)C2)cc1 | – | mouse, non-tumour-bearing, brain | oral, dose not given, 7 days daily, added: fulvestrant s.c. | – | total brain concentration | 464 nmol/L
CC(C)C[C@H](NC(=O)[C@@H](Cc1c[nH]c2ccccc12)NC(=O)[C@H](Cc1ccc(O)cc1)NC(=O)[C@H](CO)NC(=O)[C@H](Cc1c[nH]c2ccccc12)NC(=O)[C@H](Cc1c[nH]cn1)NC(=O)[C@@H]1CCC(=O)N1)C(=O)N[C@@H](CCCNC(=N)N)C(=O)N1CCC[C@H]1C(=O)NCC(N)=O | – | Chinese CPP children, overall | intramuscular, 22.5 mg, 12 months, day 1, month 6 | – | patients, drug-related metabolic TEAEs | 4.5%
NC1(C(=O)N[C@@H](CCO)c2ccc(Cl)cc2)CCN(c2nc[nH]c3nccc2-3)CC1 | – | metastatic CRPC patients | 400 mg b.i.d., grade 3 to 4, treatment-related, added: enzalutamide 160 mg daily | – | incidence of Hyper-glycaemia | 28.6%
CNCc1ccc(-c2[nH]c3cc(F)cc4c3c2CCNC4=O)cc1 | – | human patients | oral, dose not given, all grades, all doses | – | incidence of malignant neoplasm progression | 16.1%
O=S(=O)(O)Oc1cc([C@H]2Oc3cc(O)cc(O)c3C[C@H]2O)ccc1O | – | human, cerebrospinal fluid | concentration not given, mean | – | CSF concentration | 12.1 nM
COc1cc(-c2nnc(SCC(N)=O)n2C)cc(OC)c1OC | – | octanol/buffer | pH 11 | – | logP | 0.25
COc1cc(Nc2ncc3c(n2)-c2ccc(Cl)cc2C(c2c(F)cccc2OC)=NC3)ccc1C(=O)O | refers to: Hypercalcemia, grade 1 | cancer patients, phase 1/2 | oral, dose not given, added: pembrolizumab | – | patients with adverse event | 21%
CN(C(=O)n1cnc(-c2cccnc2)c1)[C@H]1CC[C@H](O)CC1 | – | rat, cerebellum | oral, 10 mg/kg daily for 5 days, 24 h | – | tissue concentration | 15.5 ± 1.4 ng/g
COc1ccc(NC(=O)CSc2nnnn2C)cc1 | – | octanol/buffer | pH 11, known kinase inactives set | – | logP | 1.26
COc1ncc(-c2nc3c(n2C(C)C)[C@H](c2ccc(Cl)cc2)N(c2cc(Cl)cn(C)c2=O)C3=O)c(OC)n1 | – | human patients, plasma | oral, 250 mg, high-dose arm, cycle 2 day 1 | – | median Tmax | 3 h
C[C@H]1Oc2cc(cnc2N)-c2c(nn(C)c2C#N)CN(C)C(=O)c2ccc(F)cc21 | – | human patients, plasma | oral, dose not given, cycle 2 day 1, mean, added: avelumab | – | dose-normalised AUClast | 55 ng·h/mL/mg
Cc1ccc2c(c1)sc(-c1ccc(N(C)C)cc1)[n+]2C | – | PBS | free dye | – | emission maximum wavelength | 488 nm
COc1ccc(-c2nnc(SCC(=O)Nc3c(F)cc(F)cc3Br)n2C)cc1 | – | octanol/buffer | pH 11, known kinase inactives set | – | logP | 2.49
N#Cc1ccc2c(c1)[C@H]1CCCN(C(=O)c3ccc4[nH]cnc4c3)[C@H]1C2 | – | human | 240 mg, day 7 | – | median ACTH level | 5.2 pmol/L
[O]=[Co].[O]=[Co][O][Co]=[O] | – | Crl:CD(SD) rat female, blood | oral, 73.4 mg Co/kg/day, 90 days | – | haematocrit | 44.8%
Cc1cc(NC2CCN(C(=O)OC3CCN(C(=O)/C=C/CN(C)C)C3)CC2)n2ncc(C(C)C)c2n1 (stereo not drawn) | Phase I dose escalation CTCAE v4.0, refers to: AST increased | patients with advanced solid tumours | dose not given, Total dosing any grade | – | patients with adverse event | 19%
CCN1/C(=C/C(C)=O)Sc2ccc(F)cc21 | – | cynomolgus monkey | oral, 100 mg/kg, 6 h post-dose | reference: pre-dose | diastolic blood pressure change | 103 ± 9%
CCC(=O)N(CCC(c1ccc2c(c1)OCO2)c1ccccc1OC)Cc1ccccc1 (stereo not drawn) | – | female athymic nude mouse, blood | i.p., 60 mg/kg twice daily, 14 days, group mean | – | RDW-SD | 28.5 fL
CCc1cc(C(=O)NC)c2nccc(N3CCc4c(cc(Cn5ccnc5)cc4-c4cn(C)nc4C(F)(F)F)C3=O)c2c1 | – | Sprague Dawley rat | oral, 100 mg/kg once daily, day 2, 7-day toxicology study | reference: day 1 | body weight change | 2.4%

Excerpt of the above:
SMILES | assay | test system | conditions | scale | measurement | value
Cc1cc(NC2CCN(C(=O)OC3CCN(C(=O)/C=C/CN(C)C)C3)CC2)n2ncc(C(C)C)c2n1 (stereo not drawn) | Phase I dose escalation CTCAE v4.0, refers to: AST increased | patients with advanced solid tumours | dose not given, Total dosing any grade | – | patients with adverse event | 19%
